Assay results of several laboratories.

For O=C(O)CCC(=O)O.[2H]C([2H])([2H])Oc1cc(C)c2[nH]ccc2c1CN1CC[C@@H](C2CC2)C[C@H]1c1ccc(C(=O)O)cc1, the Cmax was 4260 ng/mL (human, plasma; 200 mg once daily, day 10, multiple ascending dose, geometric mean).
O=C(COc1ccc(Cl)cc1)NC12CC(c3nnc([C@H]4C[C@@H](OC(F)(F)F)C4)o3)(C1)C2 gave a Cmax of 631 nM (healthy human both sexes, plasma; oral, 45 mg once daily, day 1, mean).
With CCOc1c([C@H](C)n2nc(C)c3c(N)ncnc32)cc(Cl)c(F)c1[C@@H]1CNC(=O)C1 the Cmax was 1510 nM (human patients, plasma; oral, 20 mg, day 1, geometric mean).
The Cmax of C[C@@H]1CCO[C@H]2Cn3cc(C(=O)NCc4ccc(F)cc4F)c(=O)c(O)c3C(=O)N12 is reported as 4880 ng/mL (human, body weight 20 to <25 kg, plasma; oral, 22.4 mg, granules, steady state).
COc1cc(N2CCC(N3CCN(C)CC3)CC2)ccc1Nc1ncnc(Nc2ccccc2S(=O)(=O)C(C)C)n1 has a Cmax of 1130 ng/mL (human, dose expansion arm, plasma; oral, 200 mg, day 1, mean).
C=CC(=O)N(C)CCOc1c(N)ncnc1-c1cc(F)cc(NC(=O)c2ccc(C3CC3)cc2F)c1C — result for “Cmax per dose”: 7.73 ng/mL/mg (human; oral, 20 mg, day 7, median, together with: ritonavir).
CCn1cc(C(=O)N2CCOCC2)c(=O)c2cc(NC3Cc4ccccc4C3)cnc21 gave a Cmax of 2420 ng/mL (human, fed; oral suspension, 600 mg/day twice daily, day 8, arithmetic mean).
CN1C(=O)[C@@H](NC(=O)c2nnc(Cc3ccccc3)[nH]2)COc2cccnc21 has a Cmax of 249 ng/mL (healthy human, fasted, plasma; oral, 10 mg single dose, geometric mean).
With CCN1CCN(Cc2ccc(Nc3ncc(F)c(-c4cc(F)c5nc6n(c5c4)[C@H](C)CCC6)n3)nc2)CC1 the Cmax was 248 ng/mL (human, plasma; 500 mg single dose, mean).
The Cmax of Cl.[2H]C([2H])([2H])CC(=O)c1cnc(NC(=O)C2CC2)cc1Nc1cccc(-c2ncn(C([2H])([2H])[2H])n2)c1OC is reported as 250 ng/mL (geometric mean; human; oral, 40 mg twice daily, day 1, fasted, tablet, multiple dose).
The Cmax of C[C@@H](Nc1cc(F)cc(F)c1)c1cc(C(=O)N(C)C)cc2c(=O)cc(N3CCOCC3)oc12 is reported as 982 ng/mL (human, dose-expansion cohort, plasma; oral, 120 mg twice daily, geometric least-squares mean, together with: abiraterone 1000 mg).
COc1ncc(-c2nc3c(n2C(C)C)[C@H](c2ccc(Cl)cc2)N(c2cc(Cl)cn(C)c2=O)C3=O)c(OC)n1 gave a Cmax of 128 ng/mL (LC-MS/MS; human, plasma; oral, 15 mg, cycle 1 day 8, low-dose arm).
For CC(C)[C@H](N)C(=O)NCCCS(=O)(=O)O, the Cmax was 6370 ng/mL (human both sexes, plasma; oral, 256.5 mg once daily, day 1, fed capsule).
With CNC(=O)c1ccc(-c2cnc3ncc(Cc4ccc5ncccc5c4)n3n2)cc1F the Cmax was 1800 ng/mL (human, mild NCI classification, plasma; oral, 200 mg, adjusted geometric mean).
